Experimental data collected from several papers.
Each line is one published result; not all experiments were run side by side. ± gives the spread as reported.

Structure (SMILES) | tested on | test | system | setting | scale | endpoint | result
CCC(=O)N(C)c1ccc(Cl)c(Cl)c1 | Salmonella typhimurium | Ames test | TA98 | 0.05 mg/plate, with rat liver S9 |  | revertants | 13 ± 3.1 revertants/plate
COc1ccc(CNc2nc(N3CCC[C@H]3CO)ncc2C(=O)NNC(=O)c2cnc(N3CCC[C@H]3CO)nc2NCc2ccc(OC)c(Cl)c2)cc1Cl | Salmonella typhimurium |  | TA102 | 1000 µg/plate, together with: rat liver S9 |  | revertant count | 172 ± 22
CN(C)CC1CCCCC1(O)c1cccc(O)c1 (stereo not drawn) | human P-glycoprotein |  | Caco-2 TC7 monolayer | 50 µM, 3 h, apical pH 6.8, basolateral pH 7.4, together with: cyclosporine A 10 µM | relative to: B-to-A over A-to-B | efflux ratio | 3
COc1cc(C(=O)NCCOCCOCCOCCNC(=O)c2ccc([18F])nc2)ccc1NC(=O)C1NC(CC(C)(C)C)C(C#N)(c2ccc(Cl)cc2F)C1c1cccc(Cl)c1F (stereo not drawn) | HepG2 tumour model |  | host not given, bone | 4 h, tumour-bearing |  | tracer uptake | 0.65 %ID/g
CSCC[C@@H]1NC(=O)[C@@H]2CSSC[C@H](NC(=O)[C@H](CO)NC(=O)[C@H](C)N)C(=O)N[C@@H](CCCNC(=N)N)C(=O)N[C@@H]([C@@H](C)O)C(=O)N3CCC[C@H]3C(=O)N[C@@H](CCCCN)C(=O)N[C@@H](CC(=O)O)C(=O)N[C@H]3CSSC[C@H](NC(=O)[C@H](CCCCN)NC(=O)[C@H](CCCNC(=N)N)NC(=O)[C@H](CC(N)=O)NC1=O)C(=O)N[C@@H](CCCCN)C(=O)N[C@H]1CSSC[C@H](NC(=O)[C@@H]4CCCN4C(=O)[C@H](CC(=O)O)NC(=O)[C@H](C)NC3=O)C(=O)N[C@@H](C)C(=O)N[C@@H](CCCCN)C(=O)N[C@@H](CCC(=O)O)C(=O)N[C@@H]([C@@H](C)O)C(=O)NCC(=O)N[C@@H](CSSC[C@@H](C(N)=O)NC(=O)[C@H](CCCNC(=N)N)NC(=O)[C@H](CC(N)=O)NC1=O)C(=O)N1CCC[C@H]1C(=O)N[C@@H](Cc1ccc(O)cc1)C(=O)NCC(=O)N[C@@H](CCCCN)C(=O)N2 |  |  | DA rat, pristane-induced arthritis, serum | subcutaneous, 0.1 mg/kg once weekly, end of 21-day trial |  | osmolality | 288 mOsm/kg
CN[C@](C)(C[18F])C(=O)O | A549 tumour model |  | host not given, tumour | 15 min, tumour-bearing |  | tracer uptake | 4.4 %ID/g
C[C@@](O)(C(F)F)[C@H](NC(=O)c1ccc(C#CC#CC2CC2)cc1)C(=O)NO |  |  | dog, plasma | intravenous, 100 mg/kg |  | Cmax | 100 µg/mL
COc1ccc(CNc2nc(N3CCC[C@H]3CO)ncc2C(=O)NN)cc1Cl | Salmonella typhimurium |  | TA102 | 250 µg/plate |  | revertant count | 223 ± 12
CC[C@H](C)C(=O)N1CCC(NC(=O)Nc2ccc(OC(F)(F)F)c(F)c2)CC1 |  |  | healthy volunteers | oral, 16 mg single dose, 14 (unit not given) |  | subjects with dyspnoea TEAE | 0%

Excerpt of the above:
Structure (SMILES) | tested on | test | system | setting | scale | endpoint | result
COc1cc(C(=O)NCCOCCOCCOCCNC(=O)c2ccc([18F])nc2)ccc1NC(=O)C1NC(CC(C)(C)C)C(C#N)(c2ccc(Cl)cc2F)C1c1cccc(Cl)c1F (stereo not drawn) | HepG2 tumour model |  | host not given, bone | 4 h, tumour-bearing |  | tracer uptake | 0.65 %ID/g
